Published values of several laboratories.
Each line is one published result; not all experiments were run side by side. Values joined by “and” are separate records of one study, mostly repeats; a detail may differ. Numbers after ± are the reported error.

CC(C)c1nc(CN(C)C(=O)N[C@H](C(=O)N[C@@H](Cc2ccccc2)C[C@H](O)[C@H](Cc2ccccc2)NC(=O)OCc2cncs2)C(C)C)cs1
maximal efficacy (ΔE-expressing cells; ΔE mislocalization, high-content imaging): 97%

CCn1cc(-c2cc(Cn3ccnc3)cc3c2CCN([C@H](c2cc(OC)ccn2)C2CC2)C3=O)c(C(F)(F)F)n1
EC50 (DU-4475; cell growth, inhibitor; 120 h): 3.01 µM

Cn1cc(-c2ccc(-c3cncc(Cl)c3N3CCC4(CCNC4=O)CC3)cc2)cn1
log2 fold change (COLO 205; gene expression, microarray, measured: MXI1 mRNA; concentration not given, 6 h; baseline: untreated cells): 1.85

CCn1cc(-c2cc(Cn3ccoc3=N)cc3c2CCN([C@@H](C)c2cc(OC)ccn2)C3=O)c(C(F)(F)F)n1
EC50 (HCC1588; cell growth, inhibitor; 120 h): > 30 µM

CSc1cc(Oc2ccnc3[nH]c(=O)cnc23)ccc1NC(=O)Nc1cc(C(C)(C)C)nn1-c1ccccc1
phospho ratio (patient-derived cell line clone B; RPPA, measured: phosphorylated IRS-1; human; 1 µM, 4 h; baseline: DMSO): 0.92

Clc1nc(NCc2ccco2)c2[nH]cnc2n1
ΔPSI (iPSC-derived cardiomyocytes; RNA-seq, measured: ATG13 chr11 exon ending 46664095; unit not given; baseline: DMSO minus compound): 0.25

CCc1cnc(N2CCC(c3nc(COc4ccc(-n5cnnn5)cc4)cs3)CC2)nc1
normalized enrichment score (HEK-293T; RNA-seq GSEA, measured: HALLMARK_IL2_STAT5_SIGNALING; concentration not given; direction not given): 1.08

Cc1cccc(-c2[nH]c(CNc3ccccc3F)nc2-c2ccc3ncnn3c2)n1
viability (MM1.S pomalidomide-resistant; XTT; 0.75 µM; baseline: untreated): 91%

COc1cc(-c2nncn2C)ccc1Nc1ncc2cc(C)nc(NCC(C)(C)C)c2n1
GI50 (CAL-51; cell growth; 72 h): 0.032 µM

Cc1cc(Nc2ncc(Cl)c(Nc3ccccc3S(=O)(=O)C(C)C)n2)c(OC(C)C)cc1C1CCNCC1
log2 fold change (CLB-BAR; phosphoproteomics LC-MS/MS, measured: EIF4B phosphorylation; 200 nM, 60 min; baseline: untreated): -1.63

O=C(NC1CCN(CCCCC2(C(=O)NCC(F)(F)F)c3ccccc3-c3ccccc32)CC1)c1ccccc1-c1ccc(C(F)(F)F)cc1
inhibition (BT-16; cell viability, MTT; 10 µM, 72 h): 94.1%

COc1cc([C@@H]2c3cc4c(cc3[C@@H](O[C@@H]3O[C@@H]5CO[C@@H](C)O[C@H]5[C@H](O)[C@H]3O)[C@H]3COC(=O)[C@H]23)OCO4)cc(OC)c1O
G2 phase cells (HepG2 spheroids; flow cytometry; 1.7 µM, 96 h): 57.9 ± 8.41%

Nc1ncnc2c1ncn2[C@@H]1O[C@H](CO)[C@@H](O)[C@H]1O
viability (unstimulated human T cells; 100 nM, 72 h; higher = more viable cells): 82.1 a.u. and 74.6 a.u. and 83.5 a.u.

CCS(=O)(=O)Nc1ccc2c(c1)/C(=C(/Nc1ccc(CN3CCCCC3)cc1)c1ccccc1)C(=O)N2
inhibition (BT-16; cell viability, MTT; 10 µM, 72 h): 94%

O=C(/C=C/C=C/C=C/C1CCCCC1)NC1=C[C@@](O)(/C=C/C=C/C=C/C(=O)NC2=C(O)CCC2=O)[C@@H]2O[C@@H]2C1=O
GI50 (NCI-H1299; cell growth, CellTiter-Glo; 78 h): 19.6 µM

COc1ccc2c(c1)c(CC(=O)O)c(C)n2C(=O)c1ccc(Cl)cc1
PGE2 release (Swiss 3T3; inhibitor, radioimmunoassay; 1 µM, with: mastoparan 20 µM): inhibited

CCN(CC)Cc1ccc2cc(COC(=O)Nc3ccc(C(=O)NO)cc3)ccc2c1
inhibition (BT-16; cell viability, MTT; 10 µM, 72 h): 93.6%

COc1cccc2c1C(=O)c1c(O)c3c(c(O)c1C2=O)C[C@@](O)(C(=O)CO)C[C@@H]3O[C@H]1C[C@H](N)[C@H](O)[C@H](C)O1
representative mode point of departure (HepG2; oxidative stress (ROS); 6 h): 0.00724 µM

COc1ccc(-n2nc(C(C)=O)s/c2=N\N=C(/C)c2ccc(NC(=O)c3ccc(Cl)cc3)cc2)cc1
toxicity (HepG2; 10 µM): 93.9%

Cc1ccc(CNC(=O)Cn2cc(CSc3nc4ccccc4[nH]3)nn2)cc1
cytotoxicity (HEK293; MTT; 500 ppm): 90.9%

Some of these lines once more:
O=C(/C=C/C=C/C=C/C1CCCCC1)NC1=C[C@@](O)(/C=C/C=C/C=C/C(=O)NC2=C(O)CCC2=O)[C@@H]2O[C@@H]2C1=O
GI50 (NCI-H1299; cell growth, CellTiter-Glo; 78 h): 19.6 µM

COc1ccc2c(c1)c(CC(=O)O)c(C)n2C(=O)c1ccc(Cl)cc1
PGE2 release (Swiss 3T3; inhibitor, radioimmunoassay; 1 µM, with: mastoparan 20 µM): inhibited
